# Experimental data of several laboratories.
# A part holds a random share of what one study measured. Changes are numbered by the printed parent chain.

# Study 1
# Target: TAR DNA-binding protein 43, full length, His tag (TARDBP, Homo sapiens, UniProt Q13148, residues 1-414)
# Technique: RNA Bind-n-Seq
# Form: RNA
# Matrix: in vitro
# Tested at: 20 nM
# Setting: 6-mer, flanks averaged, single round
# Added: 150 mM KCl
# Relative to: input library
# Direction: higher = stronger binding
Sequence,6-mer enrichment (R)
ACAGAA,0.718
AAAGGU,0.789
GUGAAC,0.897
UGCGCA,0.909
UCUAUC,0.525
UUCUGA,0.575
GACACA,0.8
GGGGAU,3.75
CCUCUG,0.634
GCCAUC,0.68
AUACCC,0.621
ACUGUU,0.627

# Study 2
# Target: ABI1, truncated, D143A, DHFR fusion (Arabidopsis thaliana)
# Technique: DHFR PCA, deep sequencing
# Matrix: yeast
# Setting: methotrexate growth selection, single substitutions
# Added: (+)-ABA 0.11 µM
# Relative to: wild-type fitted maximum
# Direction: higher = stronger binding
# Starting sequence: PYL1, truncated, DHFR fusion (Arabidopsis thaliana); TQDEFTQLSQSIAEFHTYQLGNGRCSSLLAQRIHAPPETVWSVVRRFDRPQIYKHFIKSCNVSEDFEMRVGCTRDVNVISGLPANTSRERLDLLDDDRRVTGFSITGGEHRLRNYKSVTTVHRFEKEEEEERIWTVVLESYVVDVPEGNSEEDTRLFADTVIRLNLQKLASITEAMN
Substitution,relative binding score [%]
K116F,-3.21
I162P,4.82
V121W,-3.38
S59C,5.55
V136W,2.52
S171T,46.1
R111I,3.63
L169A,9.94
Q167R,35.9
N114P,0.784
S104V,-2.76
E130M,10.7
V137S,-3.59
D48R,-3.82
F124H,4.65
D75S,24.9
K116N,5.46
P36Q,14.9
A175G,39.7
L91G,-2.51
L112P,8.3
S171N,39
N177D,54.5
H16Q,-0.433
P36C,3.04

# Study 3
# Target: Phosphate system positive regulatory protein PHO4, full length, GST-tagged (PHO4, Saccharomyces cerevisiae, UniProt P07270, residues 1-312)
# Technique: competition protein-binding microarray
# Form: double-stranded DNA, one strand shown
# Matrix: in vitro
# Tested at: 2 µM
# Setting: whole 60-bp probe, lowest competitor level
# Added: Cbf1 competitor, 0.05 µM
# Direction: higher = stronger binding
# All sequences stand within: … GTCTTGATTCGCTTGACGCTGCTG
# Residues (chain): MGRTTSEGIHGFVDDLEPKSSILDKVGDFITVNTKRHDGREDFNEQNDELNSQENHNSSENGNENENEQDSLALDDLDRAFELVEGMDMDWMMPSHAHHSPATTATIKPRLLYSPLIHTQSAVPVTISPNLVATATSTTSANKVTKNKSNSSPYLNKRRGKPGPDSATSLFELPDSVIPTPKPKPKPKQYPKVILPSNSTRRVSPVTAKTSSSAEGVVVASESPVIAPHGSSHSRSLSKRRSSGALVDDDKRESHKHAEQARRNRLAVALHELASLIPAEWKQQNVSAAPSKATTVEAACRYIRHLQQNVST
Sequence,fluorescence intensity [a.u.]
CATACCCAACCTTGAGTCGTGGGTGAAGATATTTGT,7950
AGCGTAATCTATACCCACGTAAACCCATTGAGATAA,5290
ATTTTTACTTTAGTGCGCGTGGGTAGCCGAGCCTCG,11700
TCGGAGTACAATCCAGTCGTGCCAGTCGAATGGTAG,7290
CTTCTGTAAATTTTTCACGTGCAATGACGCGCCCCG,14000
GCCACCAACAATACCTTCGTGGGACATAGTTAAGTC,6840
CAATCTGATGATGTGGTCGTGGGTAGGCTTAGCCAA,6870
CATACCCAACCTTGGTTAGTGGGTGAAGATATTTGT,4190
CGGGGTTAAGTTTTTCACGTGGATTGCTTGCAGCAG,12300
AGACATGTCGAATCGCACGCTGTTGCATTAAAAGTA,9830
GAAAATGCTAATGCCCATGTGCGACTCATTCCGTTA,11300
GGGGACTCTAACCGTCACGTTGGTTTGGGTATCAAG,9570
AAAGCGGTAATTTGTCACGGCACTTCACATATCTAT,4330
CGGGGTTAAGTTTGTGTCGTGGGTGGCTTGCAGCAG,7610
TTCTCTAAAAGCCATCACGTGACTCGTTGAATCACT,14600
GTCTTGTCTCATTGCTGCGTGGGTGTCCCCACTTCA,8090
TATTTAGATGTCGATGACGTGTGGAGCGTAAAAATT,4740
TGGCAGCGTAACTGGCACGGCCACATCGGTGGGATT,4830
ATCTCTGTCAACTGCCTCGTGCTAAAAGCAGGATTG,11500

# Study 4
# Target: Interferon regulatory factor 7, full length, phosphomimetic (IRF7, Homo sapiens, UniProt Q92985, residues 1-503, S101K/S471D/S472D/S475D/S476D/S477D/S483D/S484D/S487D)
# Sequence of UniProt Q92985 (whole entry, unmodified, looked up): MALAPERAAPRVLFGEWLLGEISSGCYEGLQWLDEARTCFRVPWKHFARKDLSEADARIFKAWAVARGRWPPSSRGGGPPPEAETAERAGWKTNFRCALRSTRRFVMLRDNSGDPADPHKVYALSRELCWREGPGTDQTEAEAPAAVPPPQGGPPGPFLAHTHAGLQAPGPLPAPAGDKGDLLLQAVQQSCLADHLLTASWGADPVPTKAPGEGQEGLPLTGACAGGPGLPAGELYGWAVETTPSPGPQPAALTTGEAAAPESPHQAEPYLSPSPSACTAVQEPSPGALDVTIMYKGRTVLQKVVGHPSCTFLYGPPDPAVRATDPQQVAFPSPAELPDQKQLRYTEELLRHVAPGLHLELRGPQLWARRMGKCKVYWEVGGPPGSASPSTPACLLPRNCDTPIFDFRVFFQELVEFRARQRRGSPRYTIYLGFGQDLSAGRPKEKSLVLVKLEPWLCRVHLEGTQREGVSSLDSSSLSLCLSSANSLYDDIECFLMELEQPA
# Technique: protein-binding microarray
# Form: double-stranded DNA, one strand shown
# Matrix: in vitro
# Tested at: 250 nM
# Setting: 60-bp whole probe
# Added: salmon DNA 0.4 mg/ml
# Relative to: random background probes
# Direction: higher = stronger binding
# All sequences stand within: GCCTAGCAC … GTCTTGATTCGCTTGACGCTGCTG
Sequence,log fluorescence
TTAGGTATCGACCCTGGGTTAGTGCTA,0.042 z-score
TTAGGTATCGGCTTTCGGTTAGTGCTA,1.19 z-score
TTAAGTTCCCTTTTCCTTTAGTGCTAG,3.94 z-score
TTAGGCATCGGACTGGGTTAGTGCTAG,-0.388 z-score
GACGGTATCGGTCCCGGGACGTGCTAG,0.204 z-score
TCAAATTTCTTCCTCCCACTGTGCTAG,0.526 z-score
TTTATTTTCTGAATGCCCTCGTGCTAG,1.52 z-score
TCATATCTGGGTTCCCCACTGTGCTAG,0.54 z-score
TTAGATTTCAGACTGGCTTAGTGCTAG,0.0602 z-score
TCAGCTTTACTGATGGCACTGTGCTAG,-0.544 z-score
TCACTAATGTTTTTTAAACTGTGCTAG,0.139 z-score
GACGGCCTGGGGTTTCGGGACGTGCTA,0.718 z-score
TCACCACTCATGCCTCTTACTGTGCTA,-0.412 z-score
GTAGGACTGGGGACTGGGTTAGTGCTA,-0.521 z-score
TTAGGACTAGGTCTCGGTTAGTGCTAG,1.73 z-score
GTCGGTCTCGGTCTCGGGACGTGCTAG,1.51 z-score
TTAGATCTCAGTTTCGATTTGTGCTAG,12.3 z-score
GACGGTATCGATATCGGGACGTGCTAG,1.72 z-score
GACCGACTGGACTTTCGGGACGTGCTA,-0.00451 z-score

# Study 5
# Target: CCNE2, cyclin fold, Cln2 fusion (human)
# Technique: yeast growth competition, sequencing
# Matrix: yeast
# Setting: weak parent motif
# Relative to: not given
# Direction: higher = stronger binding
# Starting sequence: MICAL3 docking peptide (human); LQLRRQLSFSEDS
Substitution,normalised enrichment score
R4F,0.0789
E11N,0.736
L3T,1.9
S10W,0.339
L7A,0.157
Q2W,0.153
S10A,0.384
L3M,0.458
F9A,0.253
R5P,0.0628
Q6V,0.689
D12K,0.0815
E11L,0.613
R4A,0.391
